Measurements pooled from the literature.
Lines come from different studies, so protocols differ. ± gives the spread as reported.
HBA1 with beta chain: Hemoglobin subunit alpha, with beta chain (HBA1, Homo sapiens, UniProt P69905)
Chain of UniProt P69905 (whole entry, looked up): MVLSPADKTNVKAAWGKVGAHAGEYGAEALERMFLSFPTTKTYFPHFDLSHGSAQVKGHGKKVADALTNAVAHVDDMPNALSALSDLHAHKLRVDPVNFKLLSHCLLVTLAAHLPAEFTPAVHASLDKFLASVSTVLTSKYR
MAL12: Alpha-glucosidase MAL12 (MAL12, Saccharomyces cerevisiae S288c, UniProt P53341)
Chain of UniProt P53341 (whole entry, looked up): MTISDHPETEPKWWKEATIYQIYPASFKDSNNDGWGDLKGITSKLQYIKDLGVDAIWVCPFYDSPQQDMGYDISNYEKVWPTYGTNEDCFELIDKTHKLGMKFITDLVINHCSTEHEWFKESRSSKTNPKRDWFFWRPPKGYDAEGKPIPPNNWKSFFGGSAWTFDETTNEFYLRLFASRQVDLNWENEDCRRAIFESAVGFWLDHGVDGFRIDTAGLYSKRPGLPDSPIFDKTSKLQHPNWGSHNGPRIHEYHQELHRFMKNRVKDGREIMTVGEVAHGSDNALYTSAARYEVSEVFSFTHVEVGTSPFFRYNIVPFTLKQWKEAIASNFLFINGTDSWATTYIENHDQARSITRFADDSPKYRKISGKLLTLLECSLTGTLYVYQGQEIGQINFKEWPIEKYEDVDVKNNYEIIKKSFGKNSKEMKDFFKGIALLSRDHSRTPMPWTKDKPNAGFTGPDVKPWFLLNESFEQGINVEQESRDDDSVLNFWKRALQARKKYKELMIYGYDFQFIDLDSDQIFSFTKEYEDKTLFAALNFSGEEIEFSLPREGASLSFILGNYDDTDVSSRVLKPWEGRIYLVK
SCN9A: Sodium channel protein type 9 subunit alpha (SCN9A, Homo sapiens, UniProt Q15858)
Chain of UniProt Q9NZC7 (whole entry, unmodified, looked up): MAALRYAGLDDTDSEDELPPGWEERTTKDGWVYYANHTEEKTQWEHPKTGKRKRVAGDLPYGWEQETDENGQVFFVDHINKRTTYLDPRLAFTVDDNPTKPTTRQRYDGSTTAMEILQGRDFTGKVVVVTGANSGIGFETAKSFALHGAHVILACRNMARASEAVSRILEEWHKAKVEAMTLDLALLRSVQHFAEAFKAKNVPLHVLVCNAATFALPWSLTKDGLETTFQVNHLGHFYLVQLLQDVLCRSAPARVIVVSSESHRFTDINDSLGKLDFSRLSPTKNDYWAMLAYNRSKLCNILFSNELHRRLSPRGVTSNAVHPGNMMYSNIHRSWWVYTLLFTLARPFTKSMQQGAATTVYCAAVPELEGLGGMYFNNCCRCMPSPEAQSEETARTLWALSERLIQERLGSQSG
Chain of UniProt Q15858 (whole entry, looked up): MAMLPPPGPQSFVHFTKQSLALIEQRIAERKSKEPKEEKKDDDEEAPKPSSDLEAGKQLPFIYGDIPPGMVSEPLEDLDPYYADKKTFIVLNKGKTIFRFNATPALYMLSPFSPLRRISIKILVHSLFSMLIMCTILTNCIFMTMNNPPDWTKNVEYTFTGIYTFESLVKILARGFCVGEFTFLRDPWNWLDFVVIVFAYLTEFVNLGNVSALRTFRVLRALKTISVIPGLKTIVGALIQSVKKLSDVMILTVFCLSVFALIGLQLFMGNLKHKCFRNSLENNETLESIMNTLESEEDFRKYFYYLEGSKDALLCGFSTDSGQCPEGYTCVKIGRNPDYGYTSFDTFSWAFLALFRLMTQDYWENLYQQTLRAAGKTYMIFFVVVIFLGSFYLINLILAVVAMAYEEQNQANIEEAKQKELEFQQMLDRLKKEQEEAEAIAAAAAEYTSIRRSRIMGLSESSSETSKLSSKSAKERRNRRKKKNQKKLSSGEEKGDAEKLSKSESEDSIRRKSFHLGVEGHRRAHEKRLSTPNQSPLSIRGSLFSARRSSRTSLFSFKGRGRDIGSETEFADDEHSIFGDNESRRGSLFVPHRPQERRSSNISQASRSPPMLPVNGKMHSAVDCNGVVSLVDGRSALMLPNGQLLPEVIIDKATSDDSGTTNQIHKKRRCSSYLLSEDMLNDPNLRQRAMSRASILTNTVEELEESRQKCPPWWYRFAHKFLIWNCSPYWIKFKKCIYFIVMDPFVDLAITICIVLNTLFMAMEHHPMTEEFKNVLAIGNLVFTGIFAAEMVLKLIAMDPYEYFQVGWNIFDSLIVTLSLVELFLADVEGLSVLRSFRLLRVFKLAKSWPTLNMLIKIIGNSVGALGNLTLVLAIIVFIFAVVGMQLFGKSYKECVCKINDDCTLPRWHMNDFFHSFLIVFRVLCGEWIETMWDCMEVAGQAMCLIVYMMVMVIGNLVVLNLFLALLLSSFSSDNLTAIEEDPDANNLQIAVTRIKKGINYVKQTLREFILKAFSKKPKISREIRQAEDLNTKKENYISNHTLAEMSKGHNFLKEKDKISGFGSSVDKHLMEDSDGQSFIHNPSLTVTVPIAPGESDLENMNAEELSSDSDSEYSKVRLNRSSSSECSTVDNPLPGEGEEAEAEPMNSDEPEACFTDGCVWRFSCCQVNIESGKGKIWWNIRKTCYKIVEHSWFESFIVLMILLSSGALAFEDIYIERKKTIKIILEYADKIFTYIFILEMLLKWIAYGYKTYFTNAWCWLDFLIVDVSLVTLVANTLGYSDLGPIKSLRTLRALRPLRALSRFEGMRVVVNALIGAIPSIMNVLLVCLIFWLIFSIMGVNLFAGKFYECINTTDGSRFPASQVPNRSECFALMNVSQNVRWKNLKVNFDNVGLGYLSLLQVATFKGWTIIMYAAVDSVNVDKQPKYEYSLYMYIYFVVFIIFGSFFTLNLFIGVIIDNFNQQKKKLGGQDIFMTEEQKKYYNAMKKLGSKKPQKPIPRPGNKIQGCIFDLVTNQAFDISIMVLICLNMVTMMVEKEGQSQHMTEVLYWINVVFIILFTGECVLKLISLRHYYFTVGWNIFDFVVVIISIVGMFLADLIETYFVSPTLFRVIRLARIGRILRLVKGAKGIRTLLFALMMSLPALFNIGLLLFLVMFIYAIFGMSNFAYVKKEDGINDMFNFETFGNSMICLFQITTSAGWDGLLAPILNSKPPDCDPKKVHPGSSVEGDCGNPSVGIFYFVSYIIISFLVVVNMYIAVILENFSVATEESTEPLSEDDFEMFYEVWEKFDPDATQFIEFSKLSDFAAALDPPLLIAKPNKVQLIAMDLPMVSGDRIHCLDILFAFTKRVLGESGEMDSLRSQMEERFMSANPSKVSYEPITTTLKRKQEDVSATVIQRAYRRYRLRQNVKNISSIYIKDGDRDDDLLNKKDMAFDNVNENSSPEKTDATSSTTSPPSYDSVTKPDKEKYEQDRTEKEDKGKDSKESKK
Chain of UniProt Q6STH5 (whole entry, looked up): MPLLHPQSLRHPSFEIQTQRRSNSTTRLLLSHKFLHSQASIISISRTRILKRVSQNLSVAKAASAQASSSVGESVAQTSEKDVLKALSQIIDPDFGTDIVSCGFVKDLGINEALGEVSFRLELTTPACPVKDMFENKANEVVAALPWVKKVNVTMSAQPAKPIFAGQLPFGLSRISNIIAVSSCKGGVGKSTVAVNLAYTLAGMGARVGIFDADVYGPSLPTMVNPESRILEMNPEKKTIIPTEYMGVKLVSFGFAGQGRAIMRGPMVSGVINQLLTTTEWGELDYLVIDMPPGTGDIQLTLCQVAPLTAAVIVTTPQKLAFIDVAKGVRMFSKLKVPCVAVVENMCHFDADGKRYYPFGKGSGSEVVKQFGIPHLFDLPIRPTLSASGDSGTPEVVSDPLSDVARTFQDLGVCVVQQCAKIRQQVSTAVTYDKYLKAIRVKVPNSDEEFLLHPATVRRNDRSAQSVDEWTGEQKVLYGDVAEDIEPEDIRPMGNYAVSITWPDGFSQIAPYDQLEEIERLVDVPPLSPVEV
Chain of UniProt O88944 (whole entry, looked up): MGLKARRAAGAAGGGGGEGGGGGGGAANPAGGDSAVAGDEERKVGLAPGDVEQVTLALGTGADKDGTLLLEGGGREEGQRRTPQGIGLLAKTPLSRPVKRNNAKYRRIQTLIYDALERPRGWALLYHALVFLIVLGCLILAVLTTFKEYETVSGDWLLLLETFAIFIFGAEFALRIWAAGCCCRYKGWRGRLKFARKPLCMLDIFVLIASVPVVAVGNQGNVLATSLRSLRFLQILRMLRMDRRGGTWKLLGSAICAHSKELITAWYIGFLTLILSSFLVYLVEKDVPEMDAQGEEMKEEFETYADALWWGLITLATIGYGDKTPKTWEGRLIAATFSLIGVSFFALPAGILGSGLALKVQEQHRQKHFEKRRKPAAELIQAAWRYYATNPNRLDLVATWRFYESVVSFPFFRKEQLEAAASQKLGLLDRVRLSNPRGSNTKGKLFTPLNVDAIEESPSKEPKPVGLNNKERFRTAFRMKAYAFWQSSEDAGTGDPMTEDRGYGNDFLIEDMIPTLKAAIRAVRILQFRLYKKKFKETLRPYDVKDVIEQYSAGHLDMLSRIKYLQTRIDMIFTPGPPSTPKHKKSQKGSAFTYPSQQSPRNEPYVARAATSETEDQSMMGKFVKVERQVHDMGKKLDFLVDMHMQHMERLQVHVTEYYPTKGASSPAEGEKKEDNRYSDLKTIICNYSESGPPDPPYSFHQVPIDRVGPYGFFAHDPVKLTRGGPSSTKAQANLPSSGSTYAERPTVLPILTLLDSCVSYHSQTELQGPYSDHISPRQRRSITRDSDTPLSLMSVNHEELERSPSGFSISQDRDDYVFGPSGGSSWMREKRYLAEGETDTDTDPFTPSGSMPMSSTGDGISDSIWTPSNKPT
Chain of UniProt P53559 (whole entry, looked up): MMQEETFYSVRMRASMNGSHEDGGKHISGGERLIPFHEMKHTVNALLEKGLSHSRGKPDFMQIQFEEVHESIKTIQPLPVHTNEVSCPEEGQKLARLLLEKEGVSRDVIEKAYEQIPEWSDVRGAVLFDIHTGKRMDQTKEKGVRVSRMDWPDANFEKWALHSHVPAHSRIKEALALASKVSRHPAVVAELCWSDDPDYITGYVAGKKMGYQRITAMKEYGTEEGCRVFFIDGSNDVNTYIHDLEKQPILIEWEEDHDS
Chain of UniProt P02741 (whole entry, looked up): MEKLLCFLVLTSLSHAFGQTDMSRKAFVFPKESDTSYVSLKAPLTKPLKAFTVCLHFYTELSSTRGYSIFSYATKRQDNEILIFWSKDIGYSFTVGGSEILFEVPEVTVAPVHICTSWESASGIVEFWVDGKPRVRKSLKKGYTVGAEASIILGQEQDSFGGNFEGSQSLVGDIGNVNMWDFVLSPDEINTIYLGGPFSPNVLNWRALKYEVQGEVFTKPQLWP

Substance | target | assay | system | setting | scale | quantity | value
CNC(=O)[C@@]12C[C@@H]1[C@@H](n1cnc3c(NCc4cccc(Cl)c4)nc(C#CCCCCc4cn(C56CC7CC(CC(C7)C5)C6)nn4)nc31)[C@H](O)[C@@H]2O | Adenosine receptor A3 (ADORA3, Homo sapiens, UniProt P0DMS8) | cAMP inhibition, agonist | CHO | 10 µM, together with: forskolin | relative to: NECA at 10 µM | Emax | < 50%
NC(=O)NCc1ccc(CNC(=O)[C@@H](CCCN=C(N)N)NC(=O)C(c2ccccc2)c2ccccc2)cc1 | Neuropeptide Y receptor type 1 (Mus musculus, UniProt Q04573) | antagonist | mouse, dorsal horn sections | 2 µM, together with: [Leu31,Pro34]NPY | relative to: agonist alone | minimal effect | 2.9 ± 3.3%
COc1ccc(OCc2ccccn2)c(C=O)c1 | HBA1 with beta chain | binding, cation-exchange HPLC-UV/Vis | – | 37 °C | – | association rate constant kon | 5 mM⁻¹ h⁻¹
Cc1cc(C(C)(C)CC(C)(C)C)ccc1OCCOCC[N+](C)(C)Cc1ccccc1 | Alpha-synuclein, oligomers (SNCA, Homo sapiens, UniProt P37840) | oligomer-vesicle binding, FIDA | – | 5 µM, together with: 150 nM oligomers, 50 µM DOPG liposomes | – | liposome-bound oligomers | 0%
CC(=O)N[C@@H]1[C@@H](O)[C@H](O[C@@H]2O[C@H](CO)[C@@H](O[C@@H]3O[C@H](CO[C@H]4O[C@H](CO[C@H]5O[C@H](CO)[C@@H](O)[C@H](O)[C@@H]5O[C@H]5O[C@H](CO)[C@@H](O)[C@H](O)[C@@H]5O)[C@@H](O)[C@H](O[C@H]5O[C@H](CO)[C@@H](O)[C@H](O)[C@@H]5O)[C@@H]4O)[C@@H](O)[C@H](O[C@H]4O[C@H](CO)[C@@H](O)[C@H](O)[C@@H]4O[C@H]4O[C@H](CO)[C@@H](O)[C@H](O)[C@@H]4O[C@H]4O[C@H](CO)[C@@H](O)[C@H](O)[C@@H]4O)[C@@H]3O)[C@H](O)[C@H]2NC(C)=O)[C@@H](CO)O[C@H]1NC(=O)C[C@H](N)C(=O)O | NT1 (Nicotiana tabacum, UniProt Q94EW1) | glycan binding, glycan array | – | together with: Alexa 488-labelled lectin 150 µg/mL | – | fluorescence | 32100 RFU
C[N+](C)(C)C[C@@H](O)CC(=O)[O-] | Organic cation/carnitine transporter 2 (SLC22A5, Homo sapiens, UniProt O76082) | transporter uptake, inhibitor | – | 100 µM | – | inhibition | 83.7%
COc1c(-c2ccc(O)cc2)oc2c(OC)c(O)cc(O)c2c1=O | MAL12 | enzyme activity, inhibitor, absorbance | – | 5 µM | – | inhibition | 62.1%
O=c1c(O)c(-c2ccccc2)oc2cc(O)cc(O)c12 | Kcnh1 (Mus musculus, UniProt Q60603) | inside-out patch clamp | Xenopus oocytes | 10 µM | – | V1/2 shift | -3.3 ± 1.9 mV
CSCC[C@H](NC(=O)[C@@H]1CCCN1C(=O)[C@@H](NC(=O)[C@H](Cc1ccc(O)cc1)NC(=O)[C@H](C)NC(=O)[C@@H]1CCCN1C(=O)[C@@H]1CCCN1C(=O)[C@@H]1CCCN1C(=O)[C@H](CO)NC(=O)[C@H](Cc1c[nH]cn1)NC(=O)CN)[C@@H](C)O)C(=O)N[C@@H](CO)C(=O)O | WW domain-containing oxidoreductase, WW2 domain Y85W (WWOX, Homo sapiens, UniProt Q9NZC7, Y85W) | binding, ITC | – | pH 7.0, 25 °C | – | TΔS | -3.7 ± 1.14 kcal/mol
C=C(C)CCOP(=O)(O)OP(=O)(O)O | Isopentenyl-diphosphate delta-isomerase (fni, Streptococcus pneumoniae serotype 4, UniProt Q97SH8) | substrate | – | pH 7.0, 37 °C, substrate inhibition, together with: 8 µM FMN and NADPH | – | Ki | 292 ± 39 µM
heparin | CRP, trimeric (Homo sapiens, UniProt P02741) | binding to C1q, inhibitor | – | up to 2.5 µg/well, together with: C1q 0.5 µg/well | – | inhibition of binding | inhibited
COc1ccc(-c2cc(=O)c3c(O)cc(OC)cc3o2)cc1 | MAL12 | enzyme activity, inhibitor, absorbance | – | 100 µM | – | inhibition | 15.7%
CC1=C(C(=O)OCc2ccccc2)C(c2ccc(-c3ccccc3)cc2)NC(=S)N1CCCCCc1nnn[nH]1 (stereo not shown) | Heat shock 70 kDa protein 1A, with Hdj2 (HSPA1A, Homo sapiens, UniProt P0DMV8) | ATPase activity, inhibitor | – | 100 µM, Hsp40-stimulated activity, together with: Hdj2 Hsp70:Hsp40 1:0.5 | relative to: DMSO, negative means inhibition | fold change in activity | -1.7 fold
DDLKQKACESRCTKL | human IgE | peptide microarray | peptide, peanut/walnut-allergic patient sera | concentration not given, 16 h, 4 °C | – | patients with IgE binding | 0%
CC[N+](CC)(CC)CC | Kcnma1 (Mus musculus, UniProt Q08460) | K+ current, blocker, outside-out patch, oocytes | – | pH 8.5, state-independent block fit, together with: Ca2+ 300 µM | – | charge movement | 0.23 ± 0.02 e
CC(C)C[C@H](NC(=O)[C@@H](NC(=O)[C@@H](N)[C@@H](C)O)C(C)C)C(=O)N1CCC[C@H]1C(=O)N1CCC[C@H]1C(=O)N1CCC[C@H]1C(=O)N1CCC[C@H]1C(=O)N[C@@H](Cc1ccc(O)cc1)C(=O)N[C@@H](CCCNC(=N)N)C(=O)N[C@@H](C)C(=O)N[C@@H](CCCNC(=N)N)C(=O)N[C@@H](CC(N)=O)C(=O)O | WW domain-containing oxidoreductase, WW1 domain (WWOX, Homo sapiens, UniProt Q9NZC7) | binding to WW1 domain, isothermal titration calorimetry | – | pH 7.0, 25 °C | – | binding free energy ΔG | -5.2 ± 0.07 kcal/mol

Substance | target | assay | system | setting | scale | quantity | value
COCCCOc1cc(C[C@@H](C[C@H](N)[C@@H](O)C[C@H](C(=O)NCC(C)(C)C(N)=O)C(C)C)C(C)C)ccc1OC | Renin (Rattus norvegicus, UniProt P08424) | inhibitor, item: angiotensin I | NRK-52E nuclear lysate | 1 µM, 90 min, 37 °C, together with: nephrectomized rat plasma angiotensinogen | – | renin activity | 0.13 ± 0.01 nmol/mg/h
[Ca+2] | P2X purinoceptor 7 (P2rx7, Rattus norvegicus, UniProt Q64663) | ion current, whole-cell patch clamp | HEK293, transfected | 2 mM | – | time to effect on deactivation | 0.5 s
OC1CCCc2ccc(OCc3ccc(Cl)cc3)cc21 (stereo not shown) | Amine oxidase [flavin-containing] A (MAOA, Homo sapiens, UniProt P21397) | enzyme activity, inhibitor, dialysis reversibility | – | 4 × IC50, 24 h dialysis | relative to: no inhibitor | remaining activity | 81%
Nc1ncnc2c1ncn2[C@@H]1O[C@H](COP(=O)(O)OC(=O)CCCCCC(=O)O)[C@@H](O)[C@H]1O | 6-carboxyhexanoate--CoA ligase (bioW, Bacillus subtilis, UniProt P53559) | – | – | pH 7.0, 37 °C, no CoA | – | pimeloyl-AMP bound per monomer | 1 molecules per monomer
[S]12[Fe]3[S]4[Fe]1[S]1[Fe]2[S]3[Fe]41 | Fe-S cluster assembly factor HCF101, chloroplastic (HCF101, Arabidopsis thaliana, UniProt Q6STH5) | – | – | pH 8.0, 23 °C, reconstituted, together with: ferric ammonium citrate, lithium sulfide | – | iron content | 3.6 ± 1.2 mol/mol monomer
COC(=O)c1scc(C)c1NC(=O)CN1CCN(C(C)C)CC1 | SCN9A | cell membrane chromatography | – | – | higher = stronger binding | capacity factor k′ | 3
CC[C@H](C)[C@H](NC(=O)[C@@H]1CCCN1C(=O)[C@@H]1CCCN1C(=O)[C@@H]1CCCN1C(=O)[C@@H](NC(=O)[C@H](CC(N)=O)NC(=O)[C@@H](N)Cc1ccccc1)[C@@H](C)CC)C(=O)N[C@@H](Cc1ccc(O)cc1)C(=O)N[C@H](C(=O)N[C@@H](CO)C(=O)N[C@@H](CCCNC(=N)N)C(=O)N[C@@H](C)C(=O)O)[C@@H](C)O | WW domain-containing oxidoreductase, WW1-WW2 tandem domains (WWOX, Homo sapiens, UniProt Q9NZC7) | binding, ITC | – | pH 7.0, 25 °C | – | ΔG | -5.15 ± 0.04 kcal/mol
CN(C)c1cccc2c(S(=O)(=O)Nc3ccc(C=CC(=O)O)cc3)cccc12 | Peptidylglycine alpha-amidating monooxygenase, PHM domain (Pam, Rattus norvegicus, UniProt P14925) | inactivator | – | pH 6.0, 37 °C, together with: 5.0 mM ascorbate | – | kinact | 0.00333 ± 0.0005 s⁻¹
O=Cc1ccc(COc2ccccc2)o1 | HBA1 with beta chain | item: haemoglobin A adduct | human normal whole blood | 2000 µM, 24 h, hematocrit 30% | – | peak modification | 27.9%
COc1cc2c(=O)c(OC)c(-c3ccccc3)oc2c(O)c1OC | MAL12 | enzyme activity, inhibitor, absorbance | – | 10 µM | – | inhibition | 8.2%
CCCCCCCC(=O)OC[C@H](COP(=O)(O)O[C@@H]1[C@H](O)[C@H](O)[C@@H](OP(=O)(O)O)[C@H](OP(=O)(O)O)[C@H]1O)OC(=O)CCCCCCC | Potassium voltage-gated channel subfamily KQT member 3 (Rattus norvegicus, UniProt O88944) | activator, inside-out patch clamp | CHO | 25 µM, pH 7.4, 0 mV, 175 mM KCl | – | open probability | 0.72 ± 0.16
COc1ccc(-c2cc(=O)c3ccc(O)cc3o2)cc1 | MAL12 | enzyme activity, inhibitor, absorbance | – | 100 µM | – | inhibition | 34.4%
Clc1cccc(Nc2nnc(-c3ccccc3)c3ccccc23)c1 | Dual specificity calcium/calmodulin-dependent 3',5'-cyclic nucleotide phosphodiesterase 1B (Homo sapiens, UniProt Q01064) | cGMP hydrolysis, inhibitor, fluorescence polarization | recombinant enzyme | up to 100 µM, 30 min preincubation, 30 °C, together with: TAMRA-cGMP 25 nM | – | IC50 | inactive
COc1ccc(OCC2c3cc(OC)c(OC)cc3CCN2C(=O)c2cccc(Cl)c2)cc1 (stereo not shown) | Glutamate receptor ionotropic, NMDA 2D, with NR1 (Rattus norvegicus, UniProt Q62645) | outside-out patch clamp | – | 10 µM, together with: GluN1 co-expressed | relative to: no compound | channel opening frequency | 148 ± 17%
COC(=O)c1scc(C)c1NC(=O)C(C)N1C(C)COCC1C (stereo not shown) | SCN9A | cell membrane chromatography | – | – | higher = stronger binding | capacity factor k′ | 5.8
